Measurements gathered from unrelated publications.
Compare with care: the assays were run in different laboratories. Numbers after ± are the reported error.
Sample: plasma
Route: oral

CCOc1c([C@H](C)n2nc(C)c3c(N)ncnc32)cc(Cl)c(F)c1[C@@H]1CNC(=O)C1 — Vz/F geometric mean (healthy fasted humans; 20 mg): 60 L
CN(C)C/C=C/C(=O)Nc1cc2c(Nc3ccc(F)c(Cl)c3)ncnc2cc1O[C@H]1CCOC1 — Vz/F at steady state (human; 10 mg once daily, day 27, geometric mean): 16100 L
CNC(=O)c1c(C)oc2cc(Oc3ncnc4cc(OC)c(OC)cc34)ccc12 — Vz/F (human; 5 mg, fasted, together with: rabeprazole 40 mg): 46.1 L
CNC(=O)c1ccc(-c2cnc3ncc(Cc4ccc5ncccc5c4)n3n2)cc1F — Vz/F (mean) (human, normal hepatic function; 200 mg single dose): 655 L
CCOc1ccc(Cc2cc([C@]34OC[C@](CO)(O3)[C@@H](O)[C@H](O)[C@H]4O)ccc2Cl)cc1 — Vz/F (human, type 2 diabetes, mild renal impairment; 15 mg): 255 L
O=C(c1cccnc1-c1ccncc1)N1CCC(O)(Cc2ccccc2)CC1 — Vz/F (healthy human; 400 mg once daily, day 1, arithmetic mean): 1330 L
CC(C)NC[C@@H](C(=O)N1CCN(c2ncnc3c2[C@H](C)C[C@H]3O)CC1)c1ccc(Cl)cc1 — Vz/F (human, Moderate hepatic function (Child-Pugh); 100 mg single dose, geometric mean): 14000 L
Cc1nc(-c2ccc(OCC(C)C)c(C#N)c2)sc1C(=O)O — Vz/F at steady state (human adults; 10 to 160 mg once daily, fed, PopPK post hoc): 94.5 ± 22.4 L
C=CC(=O)N1CCC(CNc2ncnc(N)c2-c2ccc(Oc3ccccc3)cc2)CC1 — Vz/F (human; 350 mg single dose, geometric mean): 1800 L

For quick reference, copied from above:
Cc1nc(-c2ccc(OCC(C)C)c(C#N)c2)sc1C(=O)O — Vz/F at steady state (human adults; 10 to 160 mg once daily, fed, PopPK post hoc): 94.5 ± 22.4 L
